{"data": "Experimental data gathered from unrelated publications", "note": "Each numbered part is a random draw from the data of one study; scales do not carry over between parts."}
{"data": "Block 1", "target": "Histone acetyltransferase KAT6A, winged helix 1, GST fusion (KAT6A, Homo sapiens, UniProt Q92794, residues 1-85)", "technique": "protein binding microarray", "form": "double-stranded DNA, one strand shown", "medium": "in vitro", "concentration": "not given", "setting": "8-mer, flanks averaged, mean of 2 arrays, mostly near background", "baseline": "not given", "direction": "higher = stronger binding", "Residues (chain)": "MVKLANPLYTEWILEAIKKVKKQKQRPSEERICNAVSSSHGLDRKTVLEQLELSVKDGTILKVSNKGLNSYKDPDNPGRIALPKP"}
{"Strand": "AGTTCTAC", "E-score": -0.175}
{"Strand": "ATCGCTAG", "E-score": -0.12}
{"Strand": "GCTCATTA", "E-score": 0.00741}
{"Strand": "AACGAAAC", "E-score": -0.0665}
{"data": "Block 2", "target": "Ras GTPase-activating protein-binding protein 1, full length (G3BP1, Homo sapiens, UniProt Q13283)", "technique": "RNA Bind-n-Seq", "form": "RNA", "medium": "in vitro", "concentration": "200 nM", "setting": "whole 134-nt RNA, ends assumed", "added": "150 mM KCl", "baseline": "input library", "direction": "higher = stronger binding", "sequence of UniProt Q13283 (whole entry, looked up)": "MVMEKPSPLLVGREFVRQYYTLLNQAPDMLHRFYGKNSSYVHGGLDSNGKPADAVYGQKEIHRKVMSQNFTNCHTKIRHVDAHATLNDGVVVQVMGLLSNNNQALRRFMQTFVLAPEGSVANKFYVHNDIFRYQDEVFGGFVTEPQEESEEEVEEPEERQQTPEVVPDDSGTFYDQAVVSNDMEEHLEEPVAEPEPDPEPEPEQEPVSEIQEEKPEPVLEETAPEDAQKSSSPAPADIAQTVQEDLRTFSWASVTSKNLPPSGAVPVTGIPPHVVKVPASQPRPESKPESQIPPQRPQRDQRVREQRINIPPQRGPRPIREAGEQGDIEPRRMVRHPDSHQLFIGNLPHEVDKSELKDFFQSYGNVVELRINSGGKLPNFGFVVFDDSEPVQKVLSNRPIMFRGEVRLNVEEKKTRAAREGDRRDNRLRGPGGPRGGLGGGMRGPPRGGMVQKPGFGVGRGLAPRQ"}
{"Strand": "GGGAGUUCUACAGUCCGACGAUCUCCUGUGCUACACAUCGUAUGUACCGAAUCGGGGAAAAAGGGGUGGGGUUUUUUUGGGGAAAGUAUUAUGUUACGCCGUUCGGAUCUGCAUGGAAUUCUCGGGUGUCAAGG", "log2 enrichment": 0.634}
{"Strand": "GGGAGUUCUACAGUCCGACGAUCGUCCUGUGCUACACAUCGUAUGUACCGAAUCGGGGUUUUUGGGGUUUUUGGGGUGGGGAAAGUAUUAUGUUACGCCGUUCGGAUCUGCACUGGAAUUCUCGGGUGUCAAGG", "log2 enrichment": 0.432}
{"Strand": "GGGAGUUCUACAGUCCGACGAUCAGUCCUGUGCUACACAUCGUAUGUACCGAAUCGGGAGGGAAAAAGGGAAAAAAAGGGAAAGUAUUAUGUUACGCCGUUCGGAUCUGCACUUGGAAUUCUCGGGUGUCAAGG", "log2 enrichment": -0.215}
{"Strand": "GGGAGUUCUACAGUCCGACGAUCGCAGGAAGUAAAAACAACUGGAAAUGCUUCGGAUAGUGGCAGGGGUGGGGGUUGCUAAGGAAAGGGUGGGAUGGGAGUGGGUAAAGAGUUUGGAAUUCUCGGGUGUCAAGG", "log2 enrichment": 1.07}
{"Strand": "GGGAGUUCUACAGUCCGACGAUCCCUGUGCUACACAUCGUAUGUACCGAAUCAAAUUUUUUUAAAUUUUUAAAUUUUUUUAAAAAAGUAUUAUGUUACGCCGUUCGGAUCUGCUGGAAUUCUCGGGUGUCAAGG", "log2 enrichment": -1.05}
{"data": "Block 3", "target": "Interferon regulatory factor 5, full length, phosphomimetic (IRF5, Homo sapiens, UniProt Q13568-2, residues 1-514, K96S/S451D/S453D/S456D/S462D)", "technique": "protein-binding microarray", "form": "double-stranded DNA, one strand shown", "medium": "in vitro", "concentration": "250 nM", "setting": "60-bp whole probe", "added": "salmon DNA 0.4 mg/ml", "baseline": "random background probes", "direction": "higher = stronger binding", "constant ends, left off below": "GCCTAGCAC … GTCTTGATTCGCTTGACGCTGCTG"}
{"Strand": "TCATATGTGTATATATAACTGTGCTAG", "log fluorescence": "0.599 z-score"}
{"Strand": "GACGGACTGTTTTTCCTGACGTGCTAG", "log fluorescence": "-0.0805 z-score"}
{"Strand": "CTGAATGTCCTCCTCTCTCTGTGCTAG", "log fluorescence": "-0.0179 z-score"}
{"Strand": "TTAGGTCTGGACTTTCGGTTAGTGCTA", "log fluorescence": "9.04 z-score"}
{"Strand": "GACGTACTGGACTTTCGGGACGTGCTA", "log fluorescence": "4.05 z-score"}
{"data": "Other studies, line by line"}
{"Substance": "PhoQ, residues 284 288 289 292 302 303 TSTLRA", "target": "PhoP, residues 12 14 15 18 19 QQAYL (Escherichia coli, UniProt P23836)", "test": "Sort-seq, item: YFP reporter", "test system": "E. coli", "setting": "PhoQ-PhoP variant library, added: 10 µM Mg2+", "how to read": "baseline: high Mg2+ state, higher = stronger signaling", "quantity": "fold induction", "result": 7.89}
{"note": "Excerpt of the above (block 3):"}
{"Strand": "TTAGGTCTGGACTTTCGGTTAGTGCTA", "log fluorescence": "9.04 z-score"}
